Assay results pooled from the literature.
Compare with care: the assays were run in different laboratories.

Compound = N=C(N)NCCC[C@H](NC(=O)[C@H](Cc1c[nH]c2ccccc12)NC(=O)[C@H](CCCNC(=N)N)NC(=O)[C@H](Cc1c[nH]c2ccccc12)NC(=O)[C@H](Cc1c[nH]c2ccccc12)NC(=O)[C@H](Cc1c[nH]c2ccccc12)NC(=O)[C@H](CCCNC(=N)N)NC(=O)[C@H](Cc1c[nH]c2ccccc12)NC(=O)[C@H](CCCNC(=N)N)NC(=O)CN)C(N)=O; organism = Candida albicans; assay = broth microdilution; test system = CGMCC 2.209, RPMI 1640-MOPS; conditions = 48 h, 30 °C, added: MgCl2 1 mM; MIC = 8 µM
Compound = CC1(C)S[C@@H]2[C@H](NC(=O)[C@H](N)c3ccccc3)C(=O)N2[C@H]1C(=O)O; organism = Escherichia coli; assay = broth microdilution; test system = isolate IU 356 A, KPC-3, VIM-1, TEM; conditions = no clavulanic acid; MIC = > 200 µg/mL
Compound = [O-][N+]1=C(c2ccc(Cl)cc2)C2=NCCN2c2ccccc21; organism = Bacteroides fragilis; MIC = 0.06 to 0.125 µg/mL
Compound = CC(C)C[C@H](NC(=O)[C@H](CCCNC(=N)N)NC(=O)[C@H](Cc1c[nH]c2ccccc12)NC(=O)[C@H](CCCNC(=N)N)NC(=O)[C@H](Cc1c[nH]c2ccccc12)NC(=O)[C@H](Cc1c[nH]c2ccccc12)NC(=O)[C@H](Cc1c[nH]c2ccccc12)NC(=O)[C@H](CCCNC(=N)N)NC(=O)[C@H](Cc1c[nH]c2ccccc12)NC(=O)[C@H](CCCNC(=N)N)NC(=O)CN)C(N)=O; organism = Candida albicans; assay = broth microdilution; test system = SP3902, RPMI 1640-MOPS; conditions = 48 h, 30 °C; MIC = 32 µM
Compound = N=C(N)NCCC[C@H](NC(=O)CCCCCNC(=O)[C@H](CCCNC(=N)N)NC(=O)[C@H](CCCNC(=N)N)NC(=O)CCCCCNC(=O)[C@H](CCCNC(=N)N)NC(=O)[C@H](CCCNC(=N)N)NC(=O)CCCCCNC(=O)[C@H](CCCNC(=N)N)NC(=O)[C@H](CCCNC(=N)N)NC(=O)CCCCCNC(=O)[C@@H](N)CCCNC(=N)N)C(=O)NCCCCCC(=O)NCCC(=O)O; organism = Escherichia coli; test system = ATCC 25922; conditions = 1 h, 37 °C, after 90% fetal bovine serum; MIC = > 192 µM
Compound = C[C@H](NC(=O)[C@H](CCCNC(=N)N)NC(=O)[C@H](Cc1c[nH]c2ccccc12)NC(=O)[C@H](CCCNC(=N)N)NC(=O)[C@H](Cc1c[nH]c2ccccc12)NC(=O)[C@H](Cc1c[nH]c2ccccc12)NC(=O)[C@H](Cc1c[nH]c2ccccc12)NC(=O)[C@H](CCCNC(=N)N)NC(=O)[C@H](Cc1c[nH]c2ccccc12)NC(=O)[C@@H](N)CCCNC(=N)N)C(N)=O; organism = Candida albicans; assay = broth microdilution; test system = 58288, RPMI 1640-MOPS; conditions = 48 h, 30 °C; MIC = 4 µM
Compound = CN[C@H](CC(C)C)C(=O)N[C@H]1C(=O)N[C@@H](CC(N)=O)C(=O)N[C@H]2C(=O)NC3C(=O)N[C@H](C(=O)N[C@H](C(=O)NCCC[N+](C)(C)C)c4cc(O)cc(O)c4-c4cc3ccc4O)[C@H](O)c3ccc(c(Cl)c3)Oc3cc2cc(c3OC2OC(CO)C(O)[C@H](O)[C@@H]2O[C@H]2CC(C)(NCc3ccc(-c4ccc(Cl)cc4)cc3)[C@H](O)[C@H](C)O2)Oc2ccc(cc2Cl)[C@H]1O (stereo partly shown); organism = Enterococcus faecium; test system = VanA VRE ATCC BAA-2317; conditions = no LTA, added: Mg2+ 100 µg/mL; MIC = 0.3 µg/mL
Compound = CC(C)C[C@@H]1NC(=O)[C@H](Cc2ccccc2)NC(=O)[C@H](Cc2ccc(O)cc2)NC(=O)[C@H](CC(C)C)NC(=O)[C@H](CCC(=O)O)NC(=O)[C@H](Cc2ccccc2)NC(=O)[C@H](CCCNC(=N)N)NC(=O)[C@H](CCC(N)=O)NC(=O)[C@H](CC(C)C)NC(=O)[C@H](CC(=O)O)NC(=O)[C@@H]2CCCN2C(=O)[C@H](CCCCN)NC(=O)[C@H](C(C)C)NC(=O)[C@H](CC(N)=O)NC(=O)[C@H](Cc2ccc(O)cc2)NC(=O)[C@H]([C@@H](C)O)NC(=O)[C@@H](N)CSSC[C@@H](C(=O)O)NC(=O)[C@H]([C@@H](C)O)NC(=O)[C@H](C(C)C)NC(=O)[C@H]([C@@H](C)O)NC(=O)CNC1=O; organism = Vibrio alginolyticus; assay = broth dilution; conditions = 24 h; MIC = > 40 µM
Compound = CC(C)[C@H](NC(=O)[C@H](CCCNC(=N)N)NC(=O)[C@H](Cc1c[nH]c2ccccc12)NC(=O)[C@H](CCCNC(=N)N)NC(=O)[C@H](Cc1c[nH]c2ccccc12)NC(=O)[C@H](Cc1c[nH]c2ccccc12)NC(=O)[C@H](Cc1c[nH]c2ccccc12)NC(=O)[C@H](CCCNC(=N)N)NC(=O)[C@H](Cc1c[nH]c2ccccc12)NC(=O)[C@@H](N)CCCNC(=N)N)C(N)=O; organism = Candida albicans; assay = broth microdilution; test system = SP3903, RPMI 1640-MOPS; conditions = 48 h, 30 °C; MIC = 8 µM
Compound = CC1NC(=O)C(C(=O)NC(C(=O)NC2C(=O)N3C2SC(C)(C)C3C(=O)O)c2ccccc2)=C1O (stereo not shown); organism = Escherichia coli; assay = broth microdilution; test system = ATCC 35218, low-level TEM-1; conditions = added: clavulanic acid 6 µg/mL; MIC = > 200 µg/mL
Compound = CSCC[C@H](NC(=O)[C@H](CC(C)C)NC(=O)[C@@H](NC(=O)[C@H](Cc1ccccc1)NC(=O)[C@H](CCCCN)NC(=O)[C@H](CCCNC(=N)N)NC(=O)[C@@H](NC(=O)[C@H](Cc1ccc(O)cc1)NC(=O)[C@H](CCCNC(=N)N)NC(=O)[C@@H](N)CCCNC(=N)N)C(C)C)C(C)C)C(=O)N[C@@H](CCCNC(=N)N)C(=O)O; organism = Staphylococcus haemolyticus; MIC = 50 µg/mL
Compound = CC(C)CC1NC(=O)C(C(=O)NC(C(=O)NC2C(=O)N3C2SC(C)(C)C3C(=O)O)c2ccccc2)=C1O (stereo not shown); organism = Escherichia coli; assay = broth microdilution; test system = isolate IU, CTX-M-14, TEM-1; conditions = added: clavulanic acid 6 µg/mL; MIC = > 200 µg/mL
Compound = CC(C)C[C@H](NC(=O)[C@H](CCCNC(=N)N)NC(=O)[C@H](Cc1c[nH]c2ccccc12)NC(=O)[C@H](CCCNC(=N)N)NC(=O)[C@H](Cc1c[nH]c2ccccc12)NC(=O)[C@H](Cc1c[nH]c2ccccc12)NC(=O)[C@H](Cc1c[nH]c2ccccc12)NC(=O)[C@H](CCCNC(=N)N)NC(=O)[C@H](Cc1c[nH]c2ccccc12)NC(=O)[C@@H](N)CCCNC(=N)N)C(N)=O; organism = Candida albicans; assay = broth microdilution; test system = 58288, RPMI 1640-MOPS; conditions = 48 h, 30 °C; MIC = 8 µM
Compound = C[C@@H](O)[C@H]1C(=O)N2C(C(=O)O)=C(SCCN=CN)C[C@H]12; organism = Klebsiella pneumoniae; assay = broth microdilution; test system = KPC-127 producing; MIC = 0.5 µg/mL
Compound = CC1(C)SC2C(NC(=O)C(NC(=O)C3=C(O)C(Cc4ccc([N+](=O)[O-])cc4)NC3=O)c3ccccc3)C(=O)N2C1C(=O)O (stereo not shown); organism = Escherichia coli; assay = broth microdilution; test system = JW0790-2 fiu deletion mutant; conditions = ferric iron uptake gene; MIC = 25 µg/mL
Compound = CN[C@H](CC(C)C)C(=O)N[C@H]1C(=O)N[C@@H](CC(N)=O)C(=O)N[C@H]2C(=O)N[C@H]3C(=O)N[C@H](C(=O)N[C@H](C(=O)O)c4cc(O)cc(O)c4-c4cc3ccc4O)[C@H](O)c3ccc(c(Cl)c3)Oc3cc2cc(c3O[C@@H]2O[C@H](CO)[C@@H](O)[C@H](O)[C@H]2O[C@H]2C[C@](C)(N)[C@H](O)[C@H](C)O2)Oc2ccc(cc2Cl)[C@H]1O; organism = Enterococcus; test system = VRE 700221; MIC = > 100 µM
Compound = CC1(C)SC2C(NC(=O)C(NC(=O)C3=C(O)C4CCCN4C3=O)c3ccccc3)C(=O)N2C1C(=O)O (stereo not shown); organism = Escherichia coli; assay = broth microdilution; test system = JW0790-2 fiu deletion mutant; conditions = ferric iron uptake gene; MIC = 25 µg/mL
Compound = CC[C@H](C)[C@H](NC(=O)[C@H](CC(C)C)NC(=O)[C@@H]1CCCN1C(=O)[C@@H](N)CC(C)C)C(=O)N[C@H](C(=O)N[C@@H](Cc1ccccc1)C(=O)N[C@@H](CC(C)C)C(=O)N[C@@H](CCCNC(=N)N)C(=O)N[C@@H](CC(N)=O)C(=O)N[C@@H](CCCNC(=N)N)C(=O)N[C@@H](CC(C)C)C(=O)N[C@@H](CCCCN)C(=O)N[C@@H](Cc1ccc(O)cc1)C(=O)O)[C@@H](C)CC; organism = Staphylococcus haemolyticus; MIC = 100 µg/mL
Compound = CC1(C)SC2C(NC(=O)C(NC(=O)C3=C(O)CNC3=O)c3ccccc3)C(=O)N2C1C(=O)O (stereo not shown); organism = Escherichia coli; assay = broth microdilution; test system = isolate IU 356 A, KPC-3, VIM-1, TEM; conditions = added: clavulanic acid 6 µg/mL; MIC = > 200 µg/mL
Compound = CC[C@H](C)[C@H](NC(=O)CN)C(=O)NCC(=O)N[C@@H](C)C(=O)N[C@H](C(=O)N[C@@H](CC(C)C)C(=O)N[C@@H](CCCCN)C(=O)N[C@H](C(=O)N[C@@H](CC(C)C)C(=O)N[C@H](C(=O)N[C@H](C(=O)NCC(=O)N[C@@H](CC(C)C)C(=O)N1CCC[C@H]1C(=O)N[C@@H](C)C(=O)N[C@@H](CC(C)C)C(=O)N[C@H](C(=O)N[C@@H](CO)C(=O)N[C@@H](Cc1c[nH]c2ccccc12)C(=O)N[C@H](C(=O)N[C@@H](CCCCN)C(=O)N[C@@H](CCCNC(=N)N)C(=O)N[C@@H](CCCCN)C(=O)N[C@@H](CCCNC(=N)N)C(=O)N[C@@H](CCC(N)=O)C(=O)N[C@@H](CCC(N)=O)C(N)=O)[C@@H](C)CC)[C@@H](C)CC)[C@@H](C)O)[C@@H](C)O)C(C)C)C(C)C; organism = Lactiplantibacillus plantarum; test system = 7469, probiotic strain; conditions = 24 h, 37 °C, tested up to 128 µM; MIC = 128 µM
Compound = N=C(N)NCCC[C@H](NC(=O)[C@H](Cc1c[nH]c2ccccc12)NC(=O)[C@H](CCCNC(=N)N)NC(=O)[C@H](Cc1c[nH]c2ccccc12)NC(=O)[C@H](Cc1c[nH]c2ccccc12)NC(=O)[C@H](Cc1c[nH]c2ccccc12)NC(=O)[C@H](CCCNC(=N)N)NC(=O)[C@H](Cc1c[nH]c2ccccc12)NC(=O)[C@@H](N)CCCNC(=N)N)C(=O)N[C@@H](Cc1ccccc1)C(N)=O; organism = Candida albicans; assay = broth microdilution; test system = 58288, RPMI 1640-MOPS; conditions = 48 h, 30 °C; MIC = 8 µM
Compound = CN1CC(O)=C(C(=O)NC(C(=O)NC2C(=O)N3C2SC(C)(C)C3C(=O)O)c2ccccc2)C1=O (stereo not shown); organism = Escherichia coli; assay = broth microdilution; test system = isolate IU, CTX-M-14, TEM-1; conditions = no clavulanic acid; MIC = > 200 µg/mL

Excerpt of the above:
Compound = CC1(C)SC2C(NC(=O)C(NC(=O)C3=C(O)CNC3=O)c3ccccc3)C(=O)N2C1C(=O)O (stereo not shown); organism = Escherichia coli; assay = broth microdilution; test system = isolate IU 356 A, KPC-3, VIM-1, TEM; conditions = added: clavulanic acid 6 µg/mL; MIC = > 200 µg/mL
Compound = CC[C@H](C)[C@H](NC(=O)CN)C(=O)NCC(=O)N[C@@H](C)C(=O)N[C@H](C(=O)N[C@@H](CC(C)C)C(=O)N[C@@H](CCCCN)C(=O)N[C@H](C(=O)N[C@@H](CC(C)C)C(=O)N[C@H](C(=O)N[C@H](C(=O)NCC(=O)N[C@@H](CC(C)C)C(=O)N1CCC[C@H]1C(=O)N[C@@H](C)C(=O)N[C@@H](CC(C)C)C(=O)N[C@H](C(=O)N[C@@H](CO)C(=O)N[C@@H](Cc1c[nH]c2ccccc12)C(=O)N[C@H](C(=O)N[C@@H](CCCCN)C(=O)N[C@@H](CCCNC(=N)N)C(=O)N[C@@H](CCCCN)C(=O)N[C@@H](CCCNC(=N)N)C(=O)N[C@@H](CCC(N)=O)C(=O)N[C@@H](CCC(N)=O)C(N)=O)[C@@H](C)CC)[C@@H](C)CC)[C@@H](C)O)[C@@H](C)O)C(C)C)C(C)C; organism = Lactiplantibacillus plantarum; test system = 7469, probiotic strain; conditions = 24 h, 37 °C, tested up to 128 µM; MIC = 128 µM
Compound = N=C(N)NCCC[C@H](NC(=O)[C@H](Cc1c[nH]c2ccccc12)NC(=O)[C@H](CCCNC(=N)N)NC(=O)[C@H](Cc1c[nH]c2ccccc12)NC(=O)[C@H](Cc1c[nH]c2ccccc12)NC(=O)[C@H](Cc1c[nH]c2ccccc12)NC(=O)[C@H](CCCNC(=N)N)NC(=O)[C@H](Cc1c[nH]c2ccccc12)NC(=O)[C@@H](N)CCCNC(=N)N)C(=O)N[C@@H](Cc1ccccc1)C(N)=O; organism = Candida albicans; assay = broth microdilution; test system = 58288, RPMI 1640-MOPS; conditions = 48 h, 30 °C; MIC = 8 µM
